{"data": "Experimental data gathered from unrelated publications", "note": "Parts stem from different laboratories: compare values within a part only. Changes are numbered by the printed parent chain."}
{"data": "Series 1", "target": "Protein C-ets-1 (ETS1, Homo sapiens, UniProt P14921, residues 1-441, Y397A, full length assumed)", "method": "protein-binding microarray", "form": "double-stranded DNA, one strand shown", "medium": "in vitro", "concentration": "not given", "setting": "k-mer, scored over probes, only values ≥0.25", "direction": "higher = stronger binding", "chain of UniProt P14921 (whole entry, unmodified, looked up)": "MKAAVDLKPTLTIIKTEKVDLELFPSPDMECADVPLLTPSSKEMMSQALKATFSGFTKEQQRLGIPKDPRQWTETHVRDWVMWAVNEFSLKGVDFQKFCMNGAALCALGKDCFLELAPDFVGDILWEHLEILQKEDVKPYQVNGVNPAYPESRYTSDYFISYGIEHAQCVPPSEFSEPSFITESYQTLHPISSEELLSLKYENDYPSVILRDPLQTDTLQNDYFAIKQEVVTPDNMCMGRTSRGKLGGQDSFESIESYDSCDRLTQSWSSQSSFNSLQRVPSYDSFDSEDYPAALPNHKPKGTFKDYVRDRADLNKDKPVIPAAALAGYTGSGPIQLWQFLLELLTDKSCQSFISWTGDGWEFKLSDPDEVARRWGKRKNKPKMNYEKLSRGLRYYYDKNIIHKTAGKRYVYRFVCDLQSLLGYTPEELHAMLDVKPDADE"}
{"Strand": "GCCAAAAC", "E-score": 0.27}
{"Strand": "GCAAACGC", "E-score": 0.289}
{"Strand": "ACTTCCGA", "E-score": 0.468}
{"Strand": "ACATGTAG", "E-score": 0.284}
{"Strand": "GTTTGTCA", "E-score": 0.385}
{"Strand": "TGTAACAA", "E-score": 0.257}
{"Strand": "TATATACA", "E-score": 0.287}
{"Strand": "CCGGTGTC", "E-score": 0.255}
{"data": "Series 2", "target": "CEP164, C-terminal peptide (human)", "method": "DHFR complementation, deep sequencing", "medium": "yeast", "setting": "single substitutions, model-inferred values", "reference": "wild type", "direction": "higher = weaker binding", "parent": "PDZK1, PDZ domain 2 (human); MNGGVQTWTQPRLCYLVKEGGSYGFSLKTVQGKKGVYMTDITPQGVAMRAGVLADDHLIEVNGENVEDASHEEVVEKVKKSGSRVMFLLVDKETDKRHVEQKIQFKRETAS; partner HNRVKVYRF"}
{"Change": "Q101L", "binding free energy change [kcal/mol]": 0.0147}
{"Change": "P11D", "binding free energy change [kcal/mol]": 0.494}
{"Change": "T9R", "binding free energy change [kcal/mol]": -0.0998}
{"Change": "T42G", "binding free energy change [kcal/mol]": 0.853}
{"Change": "K79E", "binding free energy change [kcal/mol]": 0.736}
{"Change": "F87L", "binding free energy change [kcal/mol]": 0.182}
{"Change": "P11W", "binding free energy change [kcal/mol]": 0.382}
{"Change": "V36N", "binding free energy change [kcal/mol]": -0.0499}
{"data": "Mixed results", "HNRNPA2B1": "HNRNPA2B1 (Homo sapiens, UniProt P22626)", "P1": "viral docking peptide; TSVRRALFTGGSD; partner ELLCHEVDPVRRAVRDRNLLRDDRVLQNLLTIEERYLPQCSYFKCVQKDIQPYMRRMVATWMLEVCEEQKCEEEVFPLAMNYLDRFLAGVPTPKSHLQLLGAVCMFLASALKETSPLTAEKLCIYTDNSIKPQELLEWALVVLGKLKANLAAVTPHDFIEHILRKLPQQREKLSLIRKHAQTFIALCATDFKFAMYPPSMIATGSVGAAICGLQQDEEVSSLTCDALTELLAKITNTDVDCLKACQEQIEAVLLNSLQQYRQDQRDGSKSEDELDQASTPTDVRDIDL"}
{"Molecule": "MYCBP2 (Homo sapiens, UniProt O75592)", "target or system": "HNRNPA2B1", "test": "cross-linking MS", "test system": "cell fractions", "setting": "added: DSSO", "endpoint": "cross-linked residues", "result": "Y422 to K104"}
{"Molecule": "P1 T9C", "target or system": "CCND2, cyclin fold, Cln2 fusion (human)", "test": "yeast growth competition, sequencing", "test system": "yeast", "setting": "weak parent motif", "how to read": "reference: not given, higher = stronger binding", "endpoint": "normalised enrichment score", "result": 0.17}
{"Molecule": "AP2A1 (Homo sapiens, UniProt O95782)", "target or system": "HNRNPA2B1", "test": "cross-linking MS", "test system": "cell fractions", "setting": "added: DSSO", "endpoint": "cross-linked residues", "result": "S567 to K112"}
{"Molecule": "WBP4 (Homo sapiens, UniProt O75554)", "target or system": "HSP90AA1 (Homo sapiens, UniProt P07900)", "test": "cross-linking MS", "test system": "cell fractions", "setting": "added: DSSO", "endpoint": "cross-linked residues", "result": "S51 to K513"}
{"Molecule": "SRSF3 (Homo sapiens, UniProt P84103)", "target or system": "PRKD2 (Homo sapiens, UniProt Q9BZL6)", "test": "cross-linking MS", "test system": "cell fractions", "setting": "added: DSSO", "endpoint": "cross-linked residues", "result": "K23 to T397"}
{"note": "A few entries again (series 1):"}
{"Strand": "GCCAAAAC", "E-score": 0.27}
{"Strand": "GCAAACGC", "E-score": 0.289}
{"Strand": "ACTTCCGA", "E-score": 0.468}
